Assay results from different studies.
Parts stem from different laboratories: compare values within a part only. Substitutions count along the parent as printed.
Chain of UniProt Q15349 (whole entry, looked up): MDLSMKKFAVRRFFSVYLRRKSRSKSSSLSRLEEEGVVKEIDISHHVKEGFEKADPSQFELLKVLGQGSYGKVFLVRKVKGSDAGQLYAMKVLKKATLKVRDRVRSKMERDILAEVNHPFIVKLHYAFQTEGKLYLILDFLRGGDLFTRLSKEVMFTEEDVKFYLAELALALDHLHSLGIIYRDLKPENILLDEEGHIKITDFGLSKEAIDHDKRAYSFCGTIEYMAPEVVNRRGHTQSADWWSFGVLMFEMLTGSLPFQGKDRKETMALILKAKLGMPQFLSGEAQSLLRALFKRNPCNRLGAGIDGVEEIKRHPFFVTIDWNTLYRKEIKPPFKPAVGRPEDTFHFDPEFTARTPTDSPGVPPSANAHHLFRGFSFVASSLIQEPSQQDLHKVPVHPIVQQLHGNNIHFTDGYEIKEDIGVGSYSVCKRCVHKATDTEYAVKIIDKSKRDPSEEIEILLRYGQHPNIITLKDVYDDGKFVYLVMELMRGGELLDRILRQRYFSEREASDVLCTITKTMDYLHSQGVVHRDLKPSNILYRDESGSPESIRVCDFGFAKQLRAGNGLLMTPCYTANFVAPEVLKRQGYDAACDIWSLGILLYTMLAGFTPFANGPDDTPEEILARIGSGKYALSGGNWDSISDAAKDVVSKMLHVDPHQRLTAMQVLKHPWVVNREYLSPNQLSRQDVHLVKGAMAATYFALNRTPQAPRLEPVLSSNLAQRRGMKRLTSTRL
Chain of UniProt Q9UK32 (whole entry, looked up): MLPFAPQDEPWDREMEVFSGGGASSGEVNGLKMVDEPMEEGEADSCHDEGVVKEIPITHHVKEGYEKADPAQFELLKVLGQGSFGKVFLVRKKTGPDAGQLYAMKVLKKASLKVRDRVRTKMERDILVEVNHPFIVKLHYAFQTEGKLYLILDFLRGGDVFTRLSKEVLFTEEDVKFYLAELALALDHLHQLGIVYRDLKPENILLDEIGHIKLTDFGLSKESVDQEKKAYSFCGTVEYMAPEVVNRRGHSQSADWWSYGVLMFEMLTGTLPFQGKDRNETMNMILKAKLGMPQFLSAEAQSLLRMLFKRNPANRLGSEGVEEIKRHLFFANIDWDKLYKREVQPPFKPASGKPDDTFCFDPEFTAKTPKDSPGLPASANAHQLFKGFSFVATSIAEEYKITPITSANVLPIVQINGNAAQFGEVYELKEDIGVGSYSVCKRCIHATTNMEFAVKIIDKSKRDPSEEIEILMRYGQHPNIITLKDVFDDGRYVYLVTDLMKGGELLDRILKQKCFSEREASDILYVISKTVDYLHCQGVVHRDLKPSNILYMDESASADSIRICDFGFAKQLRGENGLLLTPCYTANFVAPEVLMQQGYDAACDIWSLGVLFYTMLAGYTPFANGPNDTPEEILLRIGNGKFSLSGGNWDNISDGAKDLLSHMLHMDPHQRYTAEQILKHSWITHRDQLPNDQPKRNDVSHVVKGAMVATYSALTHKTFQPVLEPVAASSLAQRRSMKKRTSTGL
Chain of UniProt Q9BWU1 (whole entry, looked up): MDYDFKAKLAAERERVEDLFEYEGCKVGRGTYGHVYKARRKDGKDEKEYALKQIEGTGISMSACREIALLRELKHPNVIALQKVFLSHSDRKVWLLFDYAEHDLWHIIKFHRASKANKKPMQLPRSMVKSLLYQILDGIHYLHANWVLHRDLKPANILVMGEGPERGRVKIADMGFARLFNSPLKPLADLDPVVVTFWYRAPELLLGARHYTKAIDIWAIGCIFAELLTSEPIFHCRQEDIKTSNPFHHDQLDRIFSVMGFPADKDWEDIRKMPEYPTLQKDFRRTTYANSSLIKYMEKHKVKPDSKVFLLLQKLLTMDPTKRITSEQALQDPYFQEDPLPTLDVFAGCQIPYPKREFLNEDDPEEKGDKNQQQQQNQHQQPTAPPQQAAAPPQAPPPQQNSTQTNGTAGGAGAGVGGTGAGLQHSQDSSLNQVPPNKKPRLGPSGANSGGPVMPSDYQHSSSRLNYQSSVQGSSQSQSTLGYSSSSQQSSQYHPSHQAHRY
Chain of UniProt Q6P3R8 (whole entry, looked up): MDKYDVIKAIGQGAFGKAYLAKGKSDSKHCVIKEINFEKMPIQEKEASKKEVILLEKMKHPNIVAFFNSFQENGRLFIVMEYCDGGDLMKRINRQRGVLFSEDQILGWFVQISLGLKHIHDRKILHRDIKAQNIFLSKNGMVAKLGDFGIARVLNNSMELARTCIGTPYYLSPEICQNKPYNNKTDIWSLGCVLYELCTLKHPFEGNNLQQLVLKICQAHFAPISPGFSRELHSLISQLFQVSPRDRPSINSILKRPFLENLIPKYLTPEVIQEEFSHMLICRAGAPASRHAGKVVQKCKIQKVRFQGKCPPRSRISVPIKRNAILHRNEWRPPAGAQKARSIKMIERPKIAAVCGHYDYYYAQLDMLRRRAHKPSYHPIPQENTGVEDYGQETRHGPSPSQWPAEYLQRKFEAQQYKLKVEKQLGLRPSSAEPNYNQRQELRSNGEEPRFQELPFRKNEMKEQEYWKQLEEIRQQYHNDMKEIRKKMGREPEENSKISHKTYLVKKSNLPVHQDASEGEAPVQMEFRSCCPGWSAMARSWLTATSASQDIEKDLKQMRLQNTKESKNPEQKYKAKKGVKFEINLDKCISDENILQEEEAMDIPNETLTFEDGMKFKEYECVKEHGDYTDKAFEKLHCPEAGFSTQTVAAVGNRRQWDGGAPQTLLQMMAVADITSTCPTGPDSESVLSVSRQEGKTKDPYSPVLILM

Sample 1
Target: HLF, bZIP domain (human)
Technique: DHFR protein complementation
Matrix: yeast
Notes: single substitutions, most at no-binding floor
Relative to: wild-type JUN-FOS pair
Reading: higher = stronger binding
Parent: JUN, bZIP domain (human); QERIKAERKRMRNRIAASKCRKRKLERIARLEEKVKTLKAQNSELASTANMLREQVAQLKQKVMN; partner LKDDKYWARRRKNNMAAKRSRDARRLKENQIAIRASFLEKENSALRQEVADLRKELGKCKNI
| Substitution | binding fitness |
| --- | --- |
| L31T | -1.49 natural log |
| R53L | -1.52 natural log |
| S47W | -1.43 natural log |
| K36W | -1.42 natural log |
| E32P | -1.45 natural log |
| E32L | -1.39 natural log |
| A57Q | -1.39 natural log |
| V35T | -1.2 natural log |

Sample 2
Compound: O=C(NC[C@@H]1[C@H]2CN(C(=O)OCc3cc(C(F)(F)F)cc(C(F)(F)F)c3)C[C@@H]12)c1ccc2[nH]nnc2c1
Concentration: 1 µM
| target | read-out | technique | remaining binding [%] |
| --- | --- | --- | --- |
| NEK5 (Homo sapiens, UniProt Q6P3R8) | cell-free assay | competition with immobilised ligand | 94 |
| CDK19 (Homo sapiens, UniProt Q9BWU1) | – | competition binding | 89 |
| MET (Homo sapiens, UniProt P08581, Y1235D) | cell-free assay | competition with immobilised ligand | 76 |
| EGFR (Homo sapiens, UniProt P00533, del747-750/T751S) | cell-free assay | competition with immobilised ligand | 100 |
| FLT3 (Homo sapiens, UniProt P36888, D835H) | cell-free assay | competition with immobilised ligand | 100 |
| Ribosomal protein S6 kinase alpha-2, N-terminal kinase domain (RPS6KA2, Homo sapiens, UniProt Q15349) | cell-free assay | competition with immobilised ligand | 100 |
| Ribosomal protein S6 kinase alpha-6, C-terminal kinase domain (RPS6KA6, Homo sapiens, UniProt Q9UK32) | cell-free assay | competition with immobilised ligand | 86 |

Sample 3
Target: Activin receptor type-1 (ACVR1, Homo sapiens, UniProt Q04771)
Read-out: enzyme activity
Mode: inhibitor
Concentration: 0.5 µM
Relative to: control
Construct (Q04771 1-509): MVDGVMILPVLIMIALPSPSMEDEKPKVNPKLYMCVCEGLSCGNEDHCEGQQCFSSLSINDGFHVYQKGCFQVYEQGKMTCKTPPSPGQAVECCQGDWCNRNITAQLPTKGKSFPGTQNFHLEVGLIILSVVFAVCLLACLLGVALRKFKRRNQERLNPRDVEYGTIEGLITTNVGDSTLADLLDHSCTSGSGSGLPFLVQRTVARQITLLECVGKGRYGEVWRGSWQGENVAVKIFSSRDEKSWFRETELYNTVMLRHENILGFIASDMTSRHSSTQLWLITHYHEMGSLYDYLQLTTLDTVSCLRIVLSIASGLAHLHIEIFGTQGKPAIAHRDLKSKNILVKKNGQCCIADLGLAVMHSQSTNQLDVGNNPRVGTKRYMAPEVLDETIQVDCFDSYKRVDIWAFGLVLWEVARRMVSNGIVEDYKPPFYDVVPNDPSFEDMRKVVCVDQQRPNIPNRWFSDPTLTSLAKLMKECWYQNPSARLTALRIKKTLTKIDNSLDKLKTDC
| Structure (SMILES) | remaining activity |
| --- | --- |
| COc1cc2ncnc(Nc3ccc(Oc4ccccc4)cc3)c2cc1OC | 93.7% |
| Nc1ccc2ncnc(NCCc3ccc(Oc4ccccc4)cc3)c2c1 | 91.8% |
| CNC(=O)c1cc(Oc2ccc(NC(=O)Nc3ccc(Cl)c(C(F)(F)F)c3)cc2)ccn1 | 98.7% |
| O=C(Nc1cccc(Nc2cc(Nc3cccc(C(F)(F)F)c3)ncn2)c1)C1CC1 | 103% |
| COc1ccc(C(=O)Nc2sc3c(c2C(N)=O)CCCC3)cc1OC | 159% |
| Cc1nc(-c2ccccc2)c(-c2ccncc2)o1 | 104% |
| Cn1c2ccccc2c2c3c(c4c5ccccc5n(CCC#N)c4c21)CNC3=O | 155% |
| CN(C)c1ccc(C=C2C(=O)Nc3ccccc32)cc1 | 104% |
| N#CC(C#N)=C(N)/C(C#N)=C/c1ccc(O)cc1 | 93.8% |
| CC(C)[C@H](CO)Nc1nc(Nc2cc(N)cc(Cl)c2)c2ncn(C(C)C)c2n1 | 99.4% |
| Cc1cccc(-c2[nH]c(C(C)(C)C)nc2-c2ccc3c(c2)OCO3)n1 | 96.4% |
| COc1cc2nccc(Oc3ccc(NC(=S)NC(=O)c4ccccc4C)cc3)c2cc1OC | 93.5% |
| Oc1ccc(-c2nc(-c3ccncc3)c(-c3ccc(F)cc3)[nH]2)cc1 | 106% |
| O=C(CCCc1ccc(-c2ccccc2F)cc1)Nc1ccc(O)cc1 | 95.2% |
| NCCNc1ncc(C(N)=O)c(Nc2cccc(C(F)(F)F)c2)n1 | 98.9% |

Sample 4
Target: OGT, full length, His-tagged (human)
Technique: phage display, sequencing
Matrix: in vitro
Concentration: 1 µg OGT
Notes: single substitutions, 15-mer displayed peptide, unchanged parent 6.14
Relative to: input library
Reading: higher = stronger binding
Parent: peptide; VAYPNSYMPKYQIST
| Substitution | fold enrichment |
| --- | --- |
| S14G | 2.76 fold |
| P9E | 0.561 fold |
| T15M | 5.13 fold |
| S6K | 4.51 fold |
| Y11G | 0.0667 fold |
| A2K | 0.253 fold |
| V1I | 4.91 fold |
| Y7E | 0.567 fold |

A few entries again (sample 3):
| Structure (SMILES) | remaining activity |
| --- | --- |
| Cn1c2ccccc2c2c3c(c4c5ccccc5n(CCC#N)c4c21)CNC3=O | 155% |
| Cc1cccc(-c2[nH]c(C(C)(C)C)nc2-c2ccc3c(c2)OCO3)n1 | 96.4% |
| CN(C)c1ccc(C=C2C(=O)Nc3ccccc32)cc1 | 104% |
